# Measured values gathered from unrelated publications.
# Protocols differ between the studies behind these lines.
# Target: Serine/threonine-protein kinase PLK2 (PLK2, Homo sapiens, UniProt Q9NYY3)
# Sequence of UniProt Q9NYY3 (whole entry, looked up): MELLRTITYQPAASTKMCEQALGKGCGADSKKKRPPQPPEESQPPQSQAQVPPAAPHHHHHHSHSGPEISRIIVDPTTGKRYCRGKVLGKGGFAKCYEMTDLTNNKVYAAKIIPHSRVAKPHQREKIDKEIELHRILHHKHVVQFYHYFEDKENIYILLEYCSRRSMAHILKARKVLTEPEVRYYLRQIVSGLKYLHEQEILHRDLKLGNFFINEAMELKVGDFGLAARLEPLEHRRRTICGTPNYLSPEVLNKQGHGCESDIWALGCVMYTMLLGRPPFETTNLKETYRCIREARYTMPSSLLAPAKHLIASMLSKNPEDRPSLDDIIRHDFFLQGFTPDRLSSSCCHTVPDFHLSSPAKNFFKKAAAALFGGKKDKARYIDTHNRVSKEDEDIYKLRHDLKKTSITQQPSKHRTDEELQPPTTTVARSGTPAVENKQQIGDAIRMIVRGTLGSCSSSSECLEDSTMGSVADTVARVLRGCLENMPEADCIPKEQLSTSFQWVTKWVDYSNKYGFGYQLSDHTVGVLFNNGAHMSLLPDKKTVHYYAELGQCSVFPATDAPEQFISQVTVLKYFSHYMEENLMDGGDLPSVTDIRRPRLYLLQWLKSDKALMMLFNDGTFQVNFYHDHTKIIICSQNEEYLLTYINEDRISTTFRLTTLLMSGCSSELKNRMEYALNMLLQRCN
test,setting,scale,endpoint,value,SMILES
enzyme activity,10 µM,,remaining activity,88%,O=C(NC1CCC1)c1ccc2nc(-c3cccc(NS(=O)(=O)NCCN4CCCCC4)c3)cn2c1
kinase activity,"1 µM, human enzyme, added: ATP 10 µM",relative to: DMSO control,remaining activity,106%,COc1cc(-c2cncc3c2CN(C)Cc2cc(N4CCNCC4)ccc2-3)cc(OC)c1OC
KINOMEscan,1 µM,,remaining binding,95%,C=CC(=O)N1CCC(C(=O)NCC(=O)N2CCN(c3nc(-c4cnc(N)nc4C(F)F)nc(N4CCOCC4)n3)CC2)CC1
KINOMEscan,1 µM,relative to: DMSO control,remaining binding,100%,C=CC(=O)N1CCC(COCC(=O)N2CCN(c3nc(-c4cnc(N)nc4C(F)F)nc(N4CCOC[C@@H]4C)n3)CC2)CC1
KINOMEscan,0.1 µM,relative to: DMSO control,remaining binding,96%,C[C@@H](c1ccc(-n2cnc3c(N)ncnc32)cc1)N1CCc2nn(C)c(Cc3ccccc3)c2C1=O
,concentration not given,,percent of control,96%,C1=C/COCc2cc(ccc2OCCN2CCCC2)Nc2nccc(n2)-c2cccc(c2)COC/1
enzyme activity,10 µM,,remaining activity,98%,CCCOc1ccc(OC)c(F)c1C(=O)c1ccc(C(=O)N[C@@H]2CNC[C@H]2NC(=O)c2ccc3[nH]ncc3c2)cc1
"enzyme activity, inhibitor",10 µM,relative to: vehicle,remaining activity,106%,CCN(CC)c1ccc(C2=NNC(=O)CC2C)cc1[N+](=O)[O-] (centres unmarked)
enzyme activity,10 µM,relative to: control,remaining activity,14%,COc1cc(N2CCN(C)CC2)ccc1Nc1nc(N)n(C(=S)NCc2c(Cl)cccc2Cl)n1
kinase activity,"10 µM, added: 10 µM ATP",,remaining activity,92%,COc1cc(F)ccc1-c1ncnc(Nc2cccc(C[S@](C)(=N)=O)c2)n1
"kinase activity, KinaseProfiler","0.03 µM, species human",relative to: control,remaining activity,92%,Cc1cc(Nc2cc(N3CCN(C)CC3)nc(Sc3ccc(NC(=O)C4CC4)cc3)n2)[nH]n1

# Some of these lines once more:
test,setting,scale,endpoint,value,SMILES
KINOMEscan,1 µM,,remaining binding,95%,C=CC(=O)N1CCC(C(=O)NCC(=O)N2CCN(c3nc(-c4cnc(N)nc4C(F)F)nc(N4CCOCC4)n3)CC2)CC1
